Published values gathered from unrelated publications.
Every numbered part comes from another study and shows a few of its results, in no order.

Set 1
Target: RNA binding protein fox-1 homolog 2, RRM domain, GST-SBP tag (RBFOX2, Homo sapiens, UniProt O43251-10, residues 100-194)
Method: RNA Bind-n-Seq
Molecule type: RNA
Medium: in vitro
Tested at: 365 nM
Notes: natural RNA segment, single round, ends assumed
Relative to: no-protein control
Reading: higher = stronger binding
Quantity: RBNS enrichment (R)
Shared flanks, not repeated: GGGAGUUCUACAGUCCGACGAUC … UGGAAUUCUCGGGUGCCAA
Residues (chain): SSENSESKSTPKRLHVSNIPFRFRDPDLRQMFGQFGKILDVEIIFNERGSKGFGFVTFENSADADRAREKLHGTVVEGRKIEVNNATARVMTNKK
UCAAAGAAAUGAUCUUCAUGAUAAACUUCAAAGGAACAAACUUUAUGUUUUAGCUUCUAAAGACAAAAAUAUAGUGUUUUUAGCUUUUAGUUAAACUUUAUAAUUCUUUG: 0.467
AGGACCAUCUGAGCGGGCAGCCAAACCUGCUUCACAGUAUCAAUAAAGCGGUUCUUUGAGGUCUGGCUCCUGGGCUCCGUCAGACCACCUUGUGCAGCCCUCUCAUCUUU: 0.509
CUUGUUUGCUACAAGCCCUACCCUCCACUCUUUCAUUCCUUGAAAGCAGUUUGCCUGGUCAGUCAGCUUUUGGGGGUCCAUCAAAGGAGGUUGCUGACCUGACCGUGAGU: 0.408
AGGACCAGGCACGUCAGCUCUCUGAGCCUCCCCUUCCCUUGUUGUCACAAGGGAAUAGAAGCAGAAGAAGCUGAGAGCCUCCCUAUUCCCAGAUGCCCUGGUGGAAUGAC: 0.271
AAGCAGUCACAUAAGUGGGUACCUAUCCAGCCAUUCUCUUUUCAGAGCAUAUAAUACUAUCUUAGCCAAACUUGCCUUUGCUUCACUCAUCAUGCAGCCUUCUGGGUUGG: 0.383
UUAAGUUAUUUUAAUGUGGUUUAGGGGCAAAAUGUGCAGAUACUUCAUUUUUGUAAGAUAGAUUGUAAUAGAUGCUGUUUAUACUAAACAUGUCAUAACUAUCUAUACAG: 0.623
GACUUAUUGUCCCCACUAAAACAAAACAAAAAACUUUUAAUGCCUUCCACAUUAAUUAGAUUUUCUUGCAGUUUUUUUAUGGCAUUUUUUUAAAGAUGCCCUAAGUGUUG: 0.432
UCGCCUUUUCUAGUCCAGUAGAGUUGGCACCAAUCCAGCCUUAAAUGGUCCUGGGGAUGCCACCUGCUUCUAUGCUUUAUGCAUCAGGAUACUCUCAGGACGUGAGUGUU: 0.304

Set 2
Target: Ras GTPase-activating protein-binding protein 1, C-terminal RGG region (G3BP1, Homo sapiens, UniProt Q13283)
UniProt Q13283, sequence (whole entry, looked up): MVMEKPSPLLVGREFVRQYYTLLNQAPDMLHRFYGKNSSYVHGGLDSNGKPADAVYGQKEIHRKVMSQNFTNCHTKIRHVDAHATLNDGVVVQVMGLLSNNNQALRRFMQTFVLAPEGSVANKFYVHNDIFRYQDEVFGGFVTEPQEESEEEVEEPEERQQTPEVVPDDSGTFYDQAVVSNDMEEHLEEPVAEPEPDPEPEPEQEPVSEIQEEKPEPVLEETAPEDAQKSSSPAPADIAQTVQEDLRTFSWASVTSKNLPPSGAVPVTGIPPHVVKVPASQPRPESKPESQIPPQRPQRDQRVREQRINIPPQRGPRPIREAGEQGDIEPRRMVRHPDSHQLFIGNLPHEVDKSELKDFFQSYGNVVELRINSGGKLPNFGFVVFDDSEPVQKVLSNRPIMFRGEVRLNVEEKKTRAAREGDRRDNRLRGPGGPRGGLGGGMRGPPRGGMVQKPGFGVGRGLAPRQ
Method: RNA Bind-n-Seq
Molecule type: RNA
Medium: in vitro
Tested at: 1 µM
Notes: whole 134-nt RNA, ends assumed
Together with: 150 mM KCl
Relative to: input library
Reading: higher = stronger binding
Quantity: log2 enrichment
Shared flanks, not repeated: GGGAGUUCUACAGUCCGACGAUC … UGGAAUUCUCGGGUGUCAAGG
UAAUUAUGUUUUAUUUUCUUUAAUUGCAGGACUUCAUAGACCUCACGUUGUCGAAGACUCAACGAAAGACUCCAACCGUUAUUCAUAAAC: -0.676
UCUAGAUACAGAUGCACGAUUUGGCCAUGGAUCCGACUACUCUCGCCAACAGAACAGAUUUAAUGACUUUGAUCACCGAGAGAGGGGCAG: -1.03
CCUGUGCUACACAUCGUAUGUACCGAAUCGGGGCCCCCCGGGCCCCCCGGGCCCCCCGGGGAAAGUAUUAUGUUACGCCGUUCGGAUCUG: -2.01
CCUCAAGUCCUGUGCUACACAUCGUAUGUACCGAAUCGGGCGGGCGGGGCGGAAAGUAUUAUGUUACGCCGUUCGGAUCUGCACUUCCAG: 0.614
UGUUUAAUAAACGUGAAGAUGUCUCGCAGUCCUGAUGCGAAGGAAGACCCUGUGGAGUGCCCUCUUUGCAUGGAGCCCUUGGAGAUAGAU: -1.61
AAGUCCUGUGCUACACAUCGUAUGUACCGAAUCGGAGGAAAAAAAGGAAAAAAAGGAAAGUAUUAUGUUACGCCGUUCGGAUCUGCACUU: -1.87
CAAGUCCUGUGCUACACAUCGUAUGUACCGAAUCGGGAAAGGGAAAGGGUUUGGGAAAGUAUUAUGUUACGCCGUUCGGAUCUGCACUUC: 1.73
UAACUAUAGAGGAGGAUCUGAUGGAUAUGGCAGUGGACGUGGAUUUGGGGAUGGCUAUAAUGGGUAUGGAGGAGGACCUGGAGGUGGCAA: -0.76
CCUCAAGUCCUGUGCUACACAUCGUAUGUACCGAAUCGGGAAGGAAGGAAGGGAAAGUAUUAUGUUACGCCGUUCGGAUCUGCACUUCCA: -1.49

Set 3
Target: Sal-like protein 4, full length isoform A (SALL4, Homo sapiens, UniProt Q9UJQ4, residues 1-1053)
UniProt Q9UJQ4, sequence (whole entry, looked up): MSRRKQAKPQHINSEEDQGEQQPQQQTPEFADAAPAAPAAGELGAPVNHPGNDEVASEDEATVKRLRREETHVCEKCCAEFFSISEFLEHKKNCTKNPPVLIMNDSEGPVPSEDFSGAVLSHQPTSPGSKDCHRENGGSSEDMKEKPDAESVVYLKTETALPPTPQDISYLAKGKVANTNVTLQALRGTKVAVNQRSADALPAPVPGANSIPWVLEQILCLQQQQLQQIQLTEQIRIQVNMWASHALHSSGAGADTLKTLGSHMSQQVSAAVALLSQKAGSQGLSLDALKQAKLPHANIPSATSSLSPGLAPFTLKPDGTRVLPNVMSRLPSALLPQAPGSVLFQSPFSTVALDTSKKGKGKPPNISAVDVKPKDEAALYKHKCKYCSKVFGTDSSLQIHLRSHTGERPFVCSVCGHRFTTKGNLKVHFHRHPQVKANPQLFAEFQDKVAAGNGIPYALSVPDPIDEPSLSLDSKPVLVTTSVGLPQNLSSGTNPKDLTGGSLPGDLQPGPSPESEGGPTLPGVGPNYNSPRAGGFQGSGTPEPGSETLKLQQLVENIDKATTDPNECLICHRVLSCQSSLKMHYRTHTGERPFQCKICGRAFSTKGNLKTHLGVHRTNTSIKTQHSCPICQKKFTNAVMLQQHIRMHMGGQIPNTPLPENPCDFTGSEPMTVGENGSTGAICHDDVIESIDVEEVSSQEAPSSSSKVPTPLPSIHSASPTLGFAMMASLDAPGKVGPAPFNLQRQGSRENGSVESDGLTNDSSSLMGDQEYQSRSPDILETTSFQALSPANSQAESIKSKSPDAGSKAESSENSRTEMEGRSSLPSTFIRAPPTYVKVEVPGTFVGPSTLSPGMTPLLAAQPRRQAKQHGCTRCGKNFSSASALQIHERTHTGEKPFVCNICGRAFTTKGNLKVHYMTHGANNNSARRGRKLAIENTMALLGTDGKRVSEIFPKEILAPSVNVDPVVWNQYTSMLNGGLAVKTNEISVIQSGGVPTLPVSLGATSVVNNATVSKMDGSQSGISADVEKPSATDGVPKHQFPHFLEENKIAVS
Method: universal PBM
Molecule type: double-stranded DNA, one strand shown
Medium: in vitro
Tested at: 600 nM
Notes: 8-mer, flanks averaged, mean of replicates
Reading: higher = stronger binding
Quantity: E-score
CAGGCTTA: -0.0798
CTGACCGA: -0.178
ACGTGTAT: 0.1
AAATAGGT: 0.233
GCGGCGTA: -0.222
TGGTTCAA: 0.0819
AGTCTGAA: -0.0265
GAGTTGGC: -0.197
ACTCAATG: 0.114
AATGGACA: 0.168
CCAGGTCG: -0.304
CTATCAGC: 0.118
CGGAATGA: -0.0408
GTCGAGAA: 0.0497
ACATGAGT: 0.0543
ATTTGCTA: 0.19
GTCGTCGA: -0.191
ATGGAGCC: -0.147
ACACGGTC: -0.157
GACTCCGC: -0.309
CCGCAAGG: -0.259
CTCCGAAA: -0.0189

Set 4
Target: Probable WRKY transcription factor 33, N-terminal DNA-binding domain (WRKY33, Arabidopsis thaliana, UniProt Q8S8P5, residues 169-264)
Method: DNA-protein interaction ELISA
Molecule type: double-stranded DNA, one strand shown
Medium: in vitro, bacterial lysate
Tested at: not given
Notes: whole dsDNA probe, crude lysate protein
Relative to: highest signal in screen
Reading: higher = stronger binding
Quantity: relative absorbance
Residues (chain): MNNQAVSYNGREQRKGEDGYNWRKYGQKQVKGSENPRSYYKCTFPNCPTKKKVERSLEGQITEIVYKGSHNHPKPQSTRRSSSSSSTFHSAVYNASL
AAAAAAAATCTTAGCTCTATCTCATCAAAA: 25.6 % of maximum
AAAAAAAGTCTGCGGCTGCAGGGCGGAAAA: 21.4 % of maximum
AAAAAATTCAAAATGATCACTACGGGAAAA: 22.3 % of maximum
AAAAAAAGTATCAAAGCCTAGGGCTGAAAA: 18 % of maximum
AAAAAATCATCTCTATGTTATTGTTGAAAA: 26.1 % of maximum
AAAAAATCCCTGCTCCCCTGGTTCCTAAAA: 24.1 % of maximum
AAAAAAACTCAACTAGTGAACCACCAAAA: 21.7 % of maximum
AAAAAATCTATTCCATTTCGCCTTCTAAAA: 20.9 % of maximum
AAAAAATTTGCTCTTTTGGTTTTCACAAAA: 24.4 % of maximum
AAAAAAAACTCCCATACTACAACCGAAAAA: 21.3 % of maximum
AAAAAATAAGTAACCGAACGAAACTCAAAA: 23 % of maximum
AAAAAATAAACGTGTTCATACTTAGTAAAA: 15.9 % of maximum
AAAAAATTTGGTCTTCGTCCTCGCTTAAAA: 47.6 % of maximum
AAAAAATCCATTCTTCGCGTTTATCCAAAA: 30.2 % of maximum
AAAAAACATAACCGCAAAATCCCTACAAAA: 18.4 % of maximum
AAAAAAGCTTCTCATGTTGTCTTAGGAAAA: 23.6 % of maximum
AAAAAACTGTGTCCCCGTCCCATCTCAAAA: 20.2 % of maximum
AAAAAAGTCCCGCGCTAAGCTTTAAAAAAA: 29.4 % of maximum
AAAAAAGGCCGTTGGACCTCGGTCTAAAAA: 20.1 % of maximum
AAAAAAACGATACGGTATCTAGAAAA: 22.4 % of maximum
AAAAAAATCCCACTTCATTCTAAAAA: 20.7 % of maximum
